Assay results gathered from unrelated publications.
Numbered parts are unrelated; each lists some results of a single study.

Series 1
Target: Histone acetyltransferase KAT6A, winged helix 2, GST fusion (KAT6A, Homo sapiens, UniProt Q92794, residues 85-181)
Method: protein binding microarray
Molecule type: double-stranded DNA, one strand shown
Sample: in vitro
Concentration: not given
Setting: 8-mer, flanks averaged, mean of 2 arrays, mostly near background
Relative to: not given
Direction: higher = stronger binding
Construct (chain): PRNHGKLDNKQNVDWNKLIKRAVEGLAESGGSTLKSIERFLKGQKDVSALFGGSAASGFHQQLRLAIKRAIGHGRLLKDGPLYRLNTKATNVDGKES
Strand	E-score
AAAGTTCT	0.043
GTGCAACA	-0.047
CTCGCTGC	0.0539
CTTCCATA	-0.0956
AACTGGCA	0.0576
AATACGGT	-0.104
AAGTGGCT	-0.0889
GCGCCCGA	0.255
GAACTGGC	0.122
GTACGGAA	-0.164

Series 2
Target: Centromere-binding protein 1, full length, N-terminal tag (CBF1, Saccharomyces cerevisiae, UniProt P17106, residues 1-351)
Chain of UniProt P17106 (whole entry, looked up): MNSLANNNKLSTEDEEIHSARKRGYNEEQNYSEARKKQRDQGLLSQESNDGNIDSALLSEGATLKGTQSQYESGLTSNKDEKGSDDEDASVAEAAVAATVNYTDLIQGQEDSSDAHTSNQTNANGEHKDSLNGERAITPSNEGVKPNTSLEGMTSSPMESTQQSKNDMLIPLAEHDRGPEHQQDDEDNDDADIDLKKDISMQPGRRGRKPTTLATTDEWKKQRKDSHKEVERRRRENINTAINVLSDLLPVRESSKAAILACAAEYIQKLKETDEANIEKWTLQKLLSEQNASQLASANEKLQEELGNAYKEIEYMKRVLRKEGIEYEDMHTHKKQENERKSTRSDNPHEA
Method: protein-binding microarray
Molecule type: double-stranded DNA, one strand shown
Sample: in vitro
Concentration: 0.8 µM
Setting: whole 60-bp probe, no competitor
Direction: higher = stronger binding
Shared flanks, not repeated: … GTCTTGATTCGCTTGACGCTGCTG
Strand	fluorescence intensity [a.u.]
CTAGAGGAGAAACTGAACGTGAACTGTGAAAAGTTC	811
GAAGACACACTTTAACACCTGAGTGGGTCATCATAG	548
GAACTTTCTATGTGTATCACCTGTTATACGTGTTAG	918
CCTAACTACTATAAGCGCATGATATAGCTTCGTACA	554
GAACTGGAAATCCAAAACGTGATCGTGAGCCACTAG	1830
GAAGAAGTAATCATTATCGTGGTGCACCAGCAGTAG	490

Series 3
Target: Prothrombin, mature alpha-thrombin (F2, Homo sapiens, UniProt P00734)
Method: aptamer microarray, sandwich
Molecule type: DNA with 2'F-ANA
Sample: in vitro
Concentration: 200 nM
Setting: whole 15-mer aptamer, many near background
With: Cy3 exosite-II aptamer, 400 nM
Direction: higher = stronger binding
Strand: GGTTGGTGTGGTTGG
Modification	mean fluorescence intensity [a.u.]
2'F-ANA at 2 3 5 7 10 11 12 13	65.2
2'F-ANA at 2 5 8 12 14 15	47.9
2'F-ANA at 4 6 8 9 13 14 15	72.9
2'F-ANA at 1 4 5 8 10 12	50.8
2'F-ANA at 1 4 9 13	74.9
2'F-ANA at 1 2 3 5 7 9 10 11 12 14	46.2
2'F-ANA at 6 8 9 11 15	417
2'F-ANA at 1 3 5 9 12 13 15	83.1
2'F-ANA at 1 2 6 8 10 11 15	52.5
2'F-ANA at 1 2 3 5 8 10 11	58.3
2'F-ANA at 4 6 12 14	142

Mixed results
Molecule	target	assay	test system	setting	scale	endpoint	value
PhoQ, residues 284 288 289 292 302 303 SSCCRF	PhoP, residues 12 14 15 18 19 GHCSL (Escherichia coli, UniProt P23836)	Sort-seq, refers to: YFP reporter	E. coli	PhoQ-PhoP variant library, with: 10 µM Mg2+	relative to: high Mg2+ state, higher = stronger signaling	fold induction	18.4

For quick reference, copied from above (series 1):
Strand	E-score
AAAGTTCT	0.043
AAGTGGCT	-0.0889
GTGCAACA	-0.047
GCGCCCGA	0.255
CTTCCATA	-0.0956
